Measurements pooled from the literature.
Each line is one published result; not all experiments were run side by side. Values joined by “and” are separate records of one study, mostly repeats; a detail may differ. Numbers after ± are the reported error.
VIPR2: Vasoactive intestinal polypeptide receptor 2 (VIPR2, Homo sapiens, UniProt P41587)
Chain of UniProt P41587 (whole entry, looked up): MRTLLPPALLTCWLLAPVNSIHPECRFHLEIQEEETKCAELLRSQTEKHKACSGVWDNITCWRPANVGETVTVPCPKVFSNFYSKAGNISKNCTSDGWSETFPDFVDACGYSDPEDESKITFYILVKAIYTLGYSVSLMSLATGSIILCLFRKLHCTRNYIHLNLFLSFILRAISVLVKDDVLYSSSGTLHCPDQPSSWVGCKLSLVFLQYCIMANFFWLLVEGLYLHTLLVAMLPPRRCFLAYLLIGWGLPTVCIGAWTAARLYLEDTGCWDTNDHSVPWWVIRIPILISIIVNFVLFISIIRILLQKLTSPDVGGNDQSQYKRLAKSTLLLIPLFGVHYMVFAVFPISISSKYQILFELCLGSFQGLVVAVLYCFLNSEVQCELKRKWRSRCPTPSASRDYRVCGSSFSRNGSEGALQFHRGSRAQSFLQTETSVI
Chain of UniProt P55211 (whole entry, looked up): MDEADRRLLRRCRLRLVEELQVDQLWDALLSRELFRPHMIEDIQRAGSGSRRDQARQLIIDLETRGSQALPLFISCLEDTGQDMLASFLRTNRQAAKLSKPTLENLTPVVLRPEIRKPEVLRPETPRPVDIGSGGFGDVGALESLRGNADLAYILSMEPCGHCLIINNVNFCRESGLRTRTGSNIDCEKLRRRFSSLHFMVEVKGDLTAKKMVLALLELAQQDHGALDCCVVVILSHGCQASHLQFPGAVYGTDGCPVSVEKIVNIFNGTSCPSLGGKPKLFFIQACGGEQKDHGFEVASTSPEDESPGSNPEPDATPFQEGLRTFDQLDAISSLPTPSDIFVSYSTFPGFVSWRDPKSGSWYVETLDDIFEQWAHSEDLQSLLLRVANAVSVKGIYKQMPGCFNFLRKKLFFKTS
Chain of UniProt P21554 (whole entry, unmodified, looked up): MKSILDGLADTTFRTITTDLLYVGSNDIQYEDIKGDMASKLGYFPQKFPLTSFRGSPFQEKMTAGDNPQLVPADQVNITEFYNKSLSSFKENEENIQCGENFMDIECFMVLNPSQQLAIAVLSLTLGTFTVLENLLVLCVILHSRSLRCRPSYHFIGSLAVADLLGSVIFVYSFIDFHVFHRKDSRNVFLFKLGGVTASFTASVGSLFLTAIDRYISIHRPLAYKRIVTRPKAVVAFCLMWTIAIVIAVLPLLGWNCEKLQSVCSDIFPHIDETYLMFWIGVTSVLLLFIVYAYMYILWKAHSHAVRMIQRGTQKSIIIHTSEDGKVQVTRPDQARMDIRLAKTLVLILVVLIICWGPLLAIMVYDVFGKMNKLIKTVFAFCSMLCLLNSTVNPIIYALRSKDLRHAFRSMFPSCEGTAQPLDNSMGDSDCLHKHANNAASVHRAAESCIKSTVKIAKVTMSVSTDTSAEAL
Chain of UniProt P50406 (whole entry, looked up): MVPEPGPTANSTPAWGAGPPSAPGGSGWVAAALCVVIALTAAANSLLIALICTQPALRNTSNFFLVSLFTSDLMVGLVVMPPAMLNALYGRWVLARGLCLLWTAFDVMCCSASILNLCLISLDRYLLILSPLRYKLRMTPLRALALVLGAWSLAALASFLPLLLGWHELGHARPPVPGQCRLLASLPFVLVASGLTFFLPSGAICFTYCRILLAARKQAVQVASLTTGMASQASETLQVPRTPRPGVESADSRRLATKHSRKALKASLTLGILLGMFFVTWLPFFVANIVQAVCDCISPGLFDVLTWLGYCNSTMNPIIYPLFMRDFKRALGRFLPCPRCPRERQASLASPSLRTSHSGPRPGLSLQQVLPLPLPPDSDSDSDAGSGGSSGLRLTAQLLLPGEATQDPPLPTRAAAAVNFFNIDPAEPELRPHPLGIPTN
Chain of UniProt P33533 (whole entry, looked up): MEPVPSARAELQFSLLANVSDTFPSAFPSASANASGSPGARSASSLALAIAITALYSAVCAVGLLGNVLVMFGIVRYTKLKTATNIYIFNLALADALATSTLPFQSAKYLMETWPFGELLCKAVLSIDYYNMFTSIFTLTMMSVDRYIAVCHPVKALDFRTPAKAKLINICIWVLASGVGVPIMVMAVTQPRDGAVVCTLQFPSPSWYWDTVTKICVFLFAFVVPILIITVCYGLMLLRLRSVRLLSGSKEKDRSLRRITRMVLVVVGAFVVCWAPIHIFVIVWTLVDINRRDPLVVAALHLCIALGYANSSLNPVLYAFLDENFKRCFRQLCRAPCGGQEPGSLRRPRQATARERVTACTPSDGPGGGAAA
Chain of UniProt Q9UPC5 (whole entry, looked up): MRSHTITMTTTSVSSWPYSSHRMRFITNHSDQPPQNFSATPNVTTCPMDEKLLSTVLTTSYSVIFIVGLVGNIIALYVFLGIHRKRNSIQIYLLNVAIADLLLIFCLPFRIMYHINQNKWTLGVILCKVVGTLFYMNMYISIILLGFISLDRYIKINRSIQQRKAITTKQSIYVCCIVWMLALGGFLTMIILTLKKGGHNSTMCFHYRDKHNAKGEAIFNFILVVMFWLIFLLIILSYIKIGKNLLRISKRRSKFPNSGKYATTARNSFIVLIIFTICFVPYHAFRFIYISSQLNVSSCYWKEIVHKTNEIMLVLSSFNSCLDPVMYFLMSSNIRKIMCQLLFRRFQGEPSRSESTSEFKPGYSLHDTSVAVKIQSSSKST
Chain of UniProt O15264 (whole entry, looked up): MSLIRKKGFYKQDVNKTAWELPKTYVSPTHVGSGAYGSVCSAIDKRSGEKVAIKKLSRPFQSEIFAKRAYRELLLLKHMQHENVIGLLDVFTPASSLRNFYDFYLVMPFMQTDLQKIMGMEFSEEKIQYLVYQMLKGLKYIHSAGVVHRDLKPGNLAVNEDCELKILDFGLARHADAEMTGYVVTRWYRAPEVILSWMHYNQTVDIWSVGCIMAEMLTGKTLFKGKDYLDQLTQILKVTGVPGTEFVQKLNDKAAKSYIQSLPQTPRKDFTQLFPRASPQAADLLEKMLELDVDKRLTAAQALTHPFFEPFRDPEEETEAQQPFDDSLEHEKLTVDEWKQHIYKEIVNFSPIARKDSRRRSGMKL
Chain of UniProt P35348 (whole entry, looked up): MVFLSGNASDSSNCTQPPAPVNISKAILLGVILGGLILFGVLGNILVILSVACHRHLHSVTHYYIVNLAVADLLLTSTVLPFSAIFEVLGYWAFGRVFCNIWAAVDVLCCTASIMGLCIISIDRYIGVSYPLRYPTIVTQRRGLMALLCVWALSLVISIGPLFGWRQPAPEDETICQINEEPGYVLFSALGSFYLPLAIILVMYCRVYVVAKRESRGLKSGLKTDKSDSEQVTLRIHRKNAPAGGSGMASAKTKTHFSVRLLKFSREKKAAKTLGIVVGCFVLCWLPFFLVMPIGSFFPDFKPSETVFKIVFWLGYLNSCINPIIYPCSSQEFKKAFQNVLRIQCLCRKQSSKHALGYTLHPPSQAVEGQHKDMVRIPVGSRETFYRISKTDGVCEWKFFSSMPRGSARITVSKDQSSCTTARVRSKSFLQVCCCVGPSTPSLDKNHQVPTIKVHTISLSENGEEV
Chain of UniProt Q9GZQ4 (whole entry, looked up): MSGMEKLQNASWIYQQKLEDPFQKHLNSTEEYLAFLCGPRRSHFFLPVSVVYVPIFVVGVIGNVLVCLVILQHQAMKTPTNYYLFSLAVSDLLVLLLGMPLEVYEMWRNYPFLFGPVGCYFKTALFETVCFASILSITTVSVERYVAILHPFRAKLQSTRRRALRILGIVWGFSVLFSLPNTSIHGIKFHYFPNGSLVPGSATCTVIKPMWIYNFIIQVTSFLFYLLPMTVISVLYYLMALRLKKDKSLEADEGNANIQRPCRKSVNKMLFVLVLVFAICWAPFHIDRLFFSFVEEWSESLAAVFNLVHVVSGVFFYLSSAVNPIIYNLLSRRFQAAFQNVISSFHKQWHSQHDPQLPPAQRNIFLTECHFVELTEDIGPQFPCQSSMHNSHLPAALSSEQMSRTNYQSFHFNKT
Chain of UniProt P35367 (whole entry, looked up): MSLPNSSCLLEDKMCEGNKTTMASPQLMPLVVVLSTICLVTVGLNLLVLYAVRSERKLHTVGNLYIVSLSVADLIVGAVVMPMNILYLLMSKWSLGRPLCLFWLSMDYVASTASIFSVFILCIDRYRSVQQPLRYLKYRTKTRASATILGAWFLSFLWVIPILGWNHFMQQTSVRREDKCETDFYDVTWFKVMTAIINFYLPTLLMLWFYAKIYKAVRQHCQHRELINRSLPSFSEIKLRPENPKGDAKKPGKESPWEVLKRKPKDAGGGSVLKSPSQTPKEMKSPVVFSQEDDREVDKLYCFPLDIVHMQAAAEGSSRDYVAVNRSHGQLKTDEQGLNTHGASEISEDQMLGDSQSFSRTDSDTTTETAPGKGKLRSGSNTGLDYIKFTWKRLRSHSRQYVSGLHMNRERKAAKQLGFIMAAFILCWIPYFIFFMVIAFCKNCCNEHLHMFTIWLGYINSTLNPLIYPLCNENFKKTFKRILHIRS

| SMILES | tested on | test | test system | conditions | how to read | quantity | result |
| --- | --- | --- | --- | --- | --- | --- | --- |
| CSCC[C@H](NC(=O)[C@H](CCC(N)=O)NC(=O)[C@H](CCCCN)NC(=O)[C@H](CCCNC(=N)N)NC(=O)[C@H](Cc1ccc(O)cc1)NC(=O)[C@H](CCCNC(=N)N)NC(=O)[C@H](CO)NC(=O)[C@H](Cc1ccc(O)cc1)NC(=O)[C@H](CO)NC(=O)[C@H](CC(=O)O)NC(=O)[C@@H](NC(=O)[C@@H](N)Cc1ccccc1)[C@@H](C)O)C(=O)N[C@@H](C)C(=O)N[C@H](C(=O)N[C@@H](CCCCN)C(=O)N[C@@H](CCCCn1cc(C[C@H](NC(=O)CNC(=O)[C@H](CO)NC(=O)[C@H](CCCNC(=N)N)NC(=O)[C@H](CO)NC(=O)[C@H](CC(C)C)NC(=O)[C@H](CC(C)C)NC(=O)CNC(=O)[C@H](C)NC(=O)[C@H](CC(C)C)NC(=O)[C@H](CCCNC(=N)N)NC(=O)[C@H](Cc2c[nH]cn2)NC(=O)[C@@H](NC(=O)[C@@H](N)C(C)C)[C@@H](C)O)C(=O)N[C@H](C(=O)N[C@H](C(=O)N[C@@H](CCCCN)C(=O)N[C@@H](CC(N)=O)C(=O)N[C@@H](CC(N)=O)C(=O)N[C@@H](Cc2ccccc2)C(=O)N[C@H](C(=O)N2CCC[C@H]2C(=O)N[C@H](C(=O)N[C@@H](CC(N)=O)C(=O)N[C@H](C(=O)NCC(=O)N[C@@H](CO)C(=O)N[C@@H](CCCCN)C(=O)N[C@@H](C)C(=O)N[C@@H](Cc2ccccc2)C(N)=O)C(C)C)[C@@H](C)O)C(C)C)C(C)C)C(C)C)nn1)C(=O)N[C@@H](Cc1ccc(O)cc1)C(=O)N[C@@H](CC(C)C)C(=O)N[C@@H](C)C(=O)N[C@@H](C)C(=O)N[C@H](C(=O)N[C@@H](CC(C)C)C(=O)NCC(=O)N[C@@H](CCCCN)C(=O)N[C@@H](CCCNC(=N)N)C(=O)N[C@@H](Cc1ccc(O)cc1)C(=O)N[C@@H](CCCCN)C(=O)N[C@@H](CCC(N)=O)C(=O)N[C@@H](CCCNC(=N)N)C(=O)N[C@H](C(=O)N[C@@H](CCCCN)C(=O)N[C@@H](CC(N)=O)C(=O)N[C@@H](CCCCN)C(N)=O)C(C)C)C(C)C)C(C)C | VIPR2 | cAMP accumulation, antagonist | COS-7 transfected | first of 2 determinations, with: PACAP-38 | – | Kb | 4.47 µM |
| CC(C)(C)C(=O)OCOP(=O)(OCOC(=O)C(C)(C)C)C1CCCN(O)C1=O (stereo not shown) | MOLT-4 | – | – | – | – | CC50 | > 100 µM |
| CC(C)CC(C(=O)N1CC2(CC1C#N)C(=O)Nc1ccccc12)N(C)C(=O)c1cc2c(F)cc(F)c(F)c2[nH]1 (stereo not shown) | Caspase-9 (CASP9, Homo sapiens, UniProt P55211) | enzyme activity, inhibitor | – | – | – | IC50 | 4.7 µM and 4.68 µM |
| COc1ccccc1-c1n[nH]c2nc(N[C@H]3CC[C@H](NS(=O)(=O)CC(C)C)CC3)ncc12 | – | bead binding, competition bead pull-down, refers to: LINJ.06.0030 | Leishmania donovani extract | 10 µM | reference: vehicle | relative abundance | 0.93 |
| CSCC[C@H](NC(=O)[C@H](CCC(N)=O)NC(=O)[C@H](CCCCN)NC(=O)[C@H](CCCNC(=N)N)NC(=O)[C@H](Cc1ccc(O)cc1)NC(=O)[C@H](CCCNC(=N)N)NC(=O)[C@H](CO)NC(=O)[C@H](Cc1ccc(O)cc1)NC(=O)[C@H](CO)NC(=O)[C@H](CC(=O)O)NC(=O)[C@@H](NC(=O)[C@@H](N)Cc1ccccc1)[C@@H](C)O)C(=O)N[C@@H](C)C(=O)N[C@H](C(=O)N[C@@H](CCCCN)C(=O)N[C@@H](CCCCN)C(=O)N[C@@H](Cc1ccc(O)cc1)C(=O)N[C@@H](CC(C)C)C(=O)N[C@@H](C)C(=O)N[C@@H](C)C(=O)N[C@H](C(=O)N[C@@H](CC(C)C)C(=O)NCC(=O)N[C@@H](CCCCN)C(=O)N[C@@H](CCCNC(=N)N)C(=O)N[C@@H](Cc1ccc(O)cc1)C(=O)N[C@@H](CCCCN)C(=O)N[C@@H](CCC(N)=O)C(=O)N[C@@H](CCCCn1cc(C[C@H](NC(=O)CNC(=O)[C@H](CO)NC(=O)[C@H](CCCNC(=N)N)NC(=O)[C@H](CO)NC(=O)[C@H](CC(C)C)NC(=O)[C@H](CC(C)C)NC(=O)CNC(=O)[C@H](C)NC(=O)[C@H](CC(C)C)NC(=O)[C@H](CCCNC(=N)N)NC(=O)[C@H](Cc2c[nH]cn2)NC(=O)[C@@H](NC(=O)[C@@H](N)C(C)C)[C@@H](C)O)C(=O)N[C@H](C(=O)N[C@H](C(=O)N[C@@H](CCCCN)C(=O)N[C@@H](CC(N)=O)C(=O)N[C@@H](CC(N)=O)C(=O)N[C@@H](Cc2ccccc2)C(=O)N[C@H](C(=O)N2CCC[C@H]2C(=O)N[C@H](C(=O)N[C@@H](CC(N)=O)C(=O)N[C@H](C(=O)NCC(=O)N[C@@H](CO)C(=O)N[C@@H](CCCCN)C(=O)N[C@@H](C)C(=O)N[C@@H](Cc2ccccc2)C(N)=O)C(C)C)[C@@H](C)O)C(C)C)C(C)C)C(C)C)nn1)C(=O)N[C@H](C(=O)N[C@@H](CCCCN)C(=O)N[C@@H](CC(N)=O)C(=O)N[C@@H](CCCCN)C(N)=O)C(C)C)C(C)C)C(C)C | VIPR2 | cAMP accumulation, antagonist | – | with: VIP | – | Kb | 0.447 µM |
| COc1ccccc1C(C[N+](=O)[O-])c1c(-c2ccccc2)[nH]c2ccccc12 (stereo not shown) | Cannabinoid receptor 1 (CNR1, Homo sapiens, UniProt P21554) | G protein activation, agonist, BRET | – | – | – | EC50 | 0.19 µM |
| Cc1cc(O)cc(C)c1CCC(=O)N[C@@H]1C/C=C\CC[C@@H](C(N)=O)NC(=O)[C@H](Cc2ccccc2)NC(=O)[C@H](Cc2ccccc2)NC1=O | Delta-type opioid receptor (Oprd1, Rattus norvegicus, UniProt P33533) | ligand displacement, radioligand | – | cell membranes | – | Ki | 0.0863 µM |
| CC(C)[C@H]1NC(=O)C[C@H]2/C=C/CCSSC[C@@H](NC1=O)C(=O)N[C@H](Cc1cccc3ccccc13)C(=O)NCC(=O)O2 | Mitogen-activated protein kinase 13 (MAPK13, Homo sapiens, UniProt O15264) | enzyme activity, inhibitor | – | 10 µM | – | inhibition | -3.6% |
| O=C1NC2(CC2)COc2ncc(F)cc2[C@H]2COCCN2c2ccn3ncc1c3n2 | – | – | Sprague-Dawley rat, female, adrenals | oral, 2.5 mg/kg/day, 4 weeks, end of treatment | – | organ-to-brain weight ratio | 3.83 ± 0.46% |
| C[C@@H](Cc1ccsc1)NC(=O)NC[C@H](Cc1ccc(O)cc1)N(C)C | Alpha-1A adrenergic receptor (ADRA1A, Homo sapiens, UniProt P35348) | cell-free assay | – | – | – | Ki | 6 µM |
| O=C(Cc1ccc(OCc2ccccc2)cc1)NC1(C(=O)O)CCN(C(=O)c2ccc(-c3cccc(Cl)c3)cc2)CC1 | Probable G-protein coupled receptor 34 (Homo sapiens, UniProt Q9UPC5) | β-arrestin recruitment, agonist | – | – | – | EC50 | > 10 µM |
| CCCCCCCCCCCCCCCCCC(=O)NC[C@H]1CC[C@H](C(=O)N[C@@H](CCC(=O)NCCCOCCOCCOCCCNC(=O)COCC(=O)N[C@@H](Cc2ccc(O)cc2)C(=O)NC(C)(Cc2ccccc2)C(=O)N[C@@H](CC(C)C)C(=O)N[C@@H](CCCC)C(=O)N[C@@H](CCCNC(=N)N)C(=O)N2CCC[C@H]2C(=O)N[C@@H](CCCNC(=N)NC)C(=O)N[C@@H](CC(N)=O)C(N)=O)C(=O)O)CC1 (stereo partly shown) | Neuromedin-U receptor 2 (NMUR2, Homo sapiens, UniProt Q9GZQ4) | β-arrestin recruitment, agonist | – | – | – | EC50 | 0.00692 µM |
| CN(C)[C@H](CNC(=O)/C=C/c1cccc2ccccc12)Cc1ccc(O)cc1 | 5-hydroxytryptamine receptor 6 (HTR6, Homo sapiens, UniProt P50406) | – | – | – | – | Ki | 8.8 ± 3.2 µM |
| CC[C@H](C)[C@H](NC(=O)[C@H](CCCCN)NC(=O)CNC(=O)[C@H](CC(C)C)NC(=O)[C@H](Cc1ccccc1)NC(=O)[C@H](CCCCN)NC(=O)[C@H](CO)NC(=O)[C@H](Cc1ccccc1)NC(=O)[C@H](Cc1c[nH]c2ccccc12)NC(=O)[C@H](CCC(N)=O)NC(=O)[C@@H](NC(=O)[C@H](Cc1ccccc1)NC(=O)CCCCCNC(=O)CN1CCN(CC(=O)O)CCN(CC(=O)O)CCN(CC(=O)O)CC1)C(C)C)C(=O)N[C@@H](CCC(=O)O)C(=O)N1CCC[C@H]1C(=O)N[C@@H](CC(=O)O)C(=O)N[C@H](C(=O)N[C@@H](CO)C(=O)N[C@@H](CCC(N)=O)C(=O)N[C@H](C(=O)N[C@@H](CCC(N)=O)C(=O)N[C@@H](CC(=O)O)C(=O)N1CCC[C@H]1C(=O)N[C@@H](CC(N)=O)C(=O)N[C@@H](CC(=O)O)C(=O)N[C@@H](CCC(N)=O)C(=O)N[C@@H](Cc1ccc(O)cc1)C(=O)N[C@@H](CCC(=O)O)C(=O)N1CCC[C@H]1C(=O)N[C@@H](Cc1ccccc1)C(=O)O)C(C)C)C(C)C [copper-64 labelled] | – | dynamic PET | mouse, CT26 tumour, untreated, tumour | intravenous, 100 µCi/mouse, 1260 s | – | SUVmean | 1.04 SUV |
| Cc1ccc2c(C(C[N+](=O)[O-])c3cccs3)c(-c3ccccc3)[nH]c2c1 (stereo not shown) | Cannabinoid receptor 1 (CNR1, Homo sapiens, UniProt P21554, Y397F) | β-arrestin recruitment, agonist, luciferase | – | – | – | EC50 | 0.19 µM |
| CCN(CC)C(=O)[C@@H]1C=C2c3cccc4c3c(cn4C(=O)c3ccco3)C[C@H]2N(C)C1 | Histamine H1 receptor (HRH1, Homo sapiens, UniProt P35367) | ligand displacement, radioligand | – | – | – | Ki | > 10 µM |

Excerpt of the above:
| SMILES | tested on | test | test system | conditions | how to read | quantity | result |
| --- | --- | --- | --- | --- | --- | --- | --- |
| CC(C)CC(C(=O)N1CC2(CC1C#N)C(=O)Nc1ccccc12)N(C)C(=O)c1cc2c(F)cc(F)c(F)c2[nH]1 (stereo not shown) | Caspase-9 (CASP9, Homo sapiens, UniProt P55211) | enzyme activity, inhibitor | – | – | – | IC50 | 4.7 µM and 4.68 µM |
| COc1ccccc1-c1n[nH]c2nc(N[C@H]3CC[C@H](NS(=O)(=O)CC(C)C)CC3)ncc12 | – | bead binding, competition bead pull-down, refers to: LINJ.06.0030 | Leishmania donovani extract | 10 µM | reference: vehicle | relative abundance | 0.93 |
